Results gathered from unrelated publications.
Lines come from different studies, so protocols differ. Numbers after ± are the reported error.

SMILES	test	system	setting	tissue uptake
N=C(N)NCCC[C@@H]1NC(=O)[C@H](CCCCNC(=O)CC[C@H](NC(=O)CCOCCOCCOCCOCCNC(=O)CC[C@H](NC(=O)CN2CCN(CC(=O)O)CCN(CC(=O)O)CCN(CC(=O)O)CC2)C(=O)NCCOCCOCCOCCOCCC(=O)N[C@@H](CCC(=O)NCCCC[C@@H]2NC(=O)[C@@H](Cc3ccccc3)NC(=O)[C@H](CC(=O)O)NC(=O)CNC(=O)[C@H](CCCNC(=N)N)NC2=O)C(=O)NCCCC[C@@H]2NC(=O)[C@@H](Cc3ccccc3)NC(=O)[C@H](CC(=O)O)NC(=O)CNC(=O)[C@H](CCCNC(=N)N)NC2=O)C(=O)NCCCC[C@@H]2NC(=O)[C@@H](Cc3ccccc3)NC(=O)[C@H](CC(=O)O)NC(=O)CNC(=O)[C@H](CCCNC(=N)N)NC2=O)NC(=O)[C@@H](Cc2ccccc2)NC(=O)[C@H](CC(=O)O)NC(=O)CNC1=O [indium-111 labelled]		female athymic nude mice, liver	intravenous, 3 µCi, 1 h, U-87 MG glioma xenograft	2.39 %ID/g
CCCC[C@H](NC(=O)[C@H](Cc1cccs1)NC(=O)[C@H](Cc1c[nH]cn1)NC(=O)CCNC(=O)[C@@H](NC(=O)[C@H](C)NC(=O)[C@H](Cc1c[nH]c2ccccc12)NC(=O)[C@H](CCC(N)=O)NC(=O)[C@H](Cc1cccs1)NC(=O)CN1CCC(NC(=O)CN(CCN(CCN(CC(=O)O)CC(=O)O)CC(=O)O)CC(=O)O)CC1)C(C)C)C(N)=O [indium-111 labelled]		Swiss nu/nu mouse, male, PC-3 tumour xenograft, colon	intravenous, 10 pmol, 24 h	0.8 ± 0.2 %ID/g
N=C(N)NCCC[C@@H]1NC(=O)[C@H](CCCCNC(=O)CCOCCOCCOCCOCCNC(=O)CC[C@H](NC(=O)CCOCCOCCOCCOCCNC(=O)[C@H](CCCCNC(=O)c2ccc(NN)nc2)NC(=O)c2ccc(NN)nc2)C(=O)NCCOCCOCCOCCOCCC(=O)NCCCC[C@@H]2NC(=O)[C@@H](Cc3ccccc3)NC(=O)[C@H](CC(=O)O)NC(=O)CNC(=O)[C@H](CCCNC(=N)N)NC2=O)NC(=O)[C@@H](Cc2ccccc2)NC(=O)[C@H](CC(=O)O)NC(=O)CNC1=O [technetium-99m labelled]	SPECT/CT	female athymic nu/nu mice, glioma xenograft, tumour	intravenous, 60 min, tumour volume about 0.2 cm3	~7.5 %ID/mL
N=C(N)NCCC[C@@H]1NC(=O)[C@H](CCCCNC(=O)CNC(=O)CNC(=O)CNC(=O)CC[C@H](NC(=O)CCOCCOCCOCCOCCNC(=O)CC[C@H](NC(=O)CN2CCN(CC(=O)O)CCN(CC(=O)O)CCN(CC(=O)O)CC2)C(=O)NCCOCCOCCOCCOCCC(=O)N[C@@H](CCC(=O)NCC(=O)NCC(=O)NCC(=O)NCCCC[C@@H]2NC(=O)[C@@H](Cc3ccccc3)NC(=O)[C@H](CC(=O)O)NC(=O)CNC(=O)[C@H](CCCNC(=N)N)NC2=O)C(=O)NCC(=O)NCC(=O)NCC(=O)NCCCC[C@@H]2NC(=O)[C@@H](Cc3ccccc3)NC(=O)[C@H](CC(=O)O)NC(=O)CNC(=O)[C@H](CCCNC(=N)N)NC2=O)C(=O)NCC(=O)NCC(=O)NCC(=O)NCCCC[C@@H]2NC(=O)[C@@H](Cc3ccccc3)NC(=O)[C@H](CC(=O)O)NC(=O)CNC(=O)[C@H](CCCNC(=N)N)NC2=O)NC(=O)[C@@H](Cc2ccccc2)NC(=O)[C@H](CC(=O)O)NC(=O)CNC1=O [indium-111 labelled]		female athymic nude mice, lungs	intravenous, 3 µCi, 0.5 h, U-87 MG glioma xenograft	4.26 ± 0.78 %ID/g
N=C(N)NCCC[C@@H]1NC(=O)[C@H](CCCCNC(=O)CNC(=O)CNC(=O)CNC(=O)CC[C@H](NC(=O)CNC(=O)CNC(=O)CNC(=O)c2ccc(NN=Cc3ccccc3S(=O)(=O)O)nc2)C(=O)NCC(=O)NCC(=O)NCC(=O)NCCCC[C@@H]2NC(=O)[C@@H](Cc3ccccc3)NC(=O)[C@H](CC(=O)O)NC(=O)CNC(=O)[C@H](CCCNC(=N)N)NC2=O)NC(=O)[C@@H](Cc2ccccc2)NC(=O)[C@H](CC(=O)O)NC(=O)CNC1=O [technetium-99m labelled]		athymic nu/nu mouse, female, MDA-MB-435 xenograft, blood	intravenous, 30 min	1.09 ± 0.2 %ID/g
CSCC[C@H](NC(=O)[C@H](CC(C)C)NC(=O)[C@H](Cc1c[nH]cn1)NC(=O)CNC(=O)[C@@H](NC(=O)[C@H](C)NC(=O)[C@H](Cc1c[nH]c2ccccc12)NC(=O)[C@H](CCC(N)=O)NC(=O)[C@H](CC(N)=O)NC(=O)CNC(=O)[C@H](Cc1ccc(O)cc1)NC(=O)[C@H](CCCNC(=N)N)NC(=O)[C@H](CCC(N)=O)NC(=O)[C@@H]1CCCN1C(=O)CN1CCN(CC(=O)O)CCN(CC(=O)O)CCN(CC(=O)O)CC1)C(C)C)C(N)=O [indium-111 labelled]		Swiss nu/nu mouse, male, PC-3 tumour xenograft, pancreas	intravenous, 10 pmol, 4 h	8.9 ± 2.1 %ID/g
N=C(N)NCCC[C@@H]1NC(=O)[C@H](CCCCNC(=O)CC[C@H](NC(=O)CCOCCOCCOCCOCCNC(=O)CN2CCN(CC(=O)O)CCN(CC(=O)O)CCN(CC(=O)O)CC2)C(=O)NCCCC[C@@H]2NC(=O)[C@@H](Cc3ccccc3)NC(=O)[C@H](CC(=O)O)NC(=O)CNC(=O)[C@H](CCCNC(=N)N)NC2=O)NC(=O)[C@@H](Cc2ccccc2)NC(=O)[C@H](CC(=O)O)NC(=O)CNC1=O [indium-111 labelled]		athymic nude mice, female, U-87 MG glioma xenograft, U-87 MG tumour	intravenous, 3 µCi, 0.5 h	6.14 ± 1.12 %ID/g
N=C(N)NCCC[C@@H]1NC(=O)[C@H](CC(=O)NC23CNCCNCC(N)(CNCCNC2)CNCCNC3)NC(=O)[C@@H](Cc2ccccc2)NC(=O)[C@H](CC(=O)O)NC(=O)CNC1=O [copper-64 labelled]		Nu/Nu mouse, male, tumour-bearing, spleen	intravenous, 10 µCi, 1 h	1.08 ± 0.34 %ID/g
CCCC[C@H](NC(=O)CCCCCCCNC(=O)c1ccc(NN)nc1)C(=O)N[C@H]1CC(=O)NCCCC[C@@H](C(N)=O)NC(=O)[C@H](Cc2c[nH]c3ccccc23)NC(=O)[C@H](CCCNC(=N)N)NC(=O)[C@@H](Cc2ccccc2)NC(=O)[C@H](Cc2c[nH]cn2)NC1=O [technetium-99m labelled]		C57 mouse, B16/F1 melanoma, kidneys	2 h, together with: NDP-MSH 10 µg (6.07 nmol) co-injected	6.05 ± 1.13 %ID/g
CSCC[C@H](NC(=O)[C@H](CC(C)C)NC(=O)[C@H](Cc1c[nH]cn1)NC(=O)CNC(=O)[C@@H](NC(=O)[C@H](C)NC(=O)[C@H](Cc1c[nH]c2ccccc12)NC(=O)[C@H](CCC(N)=O)NC(=O)CCCCCCCNC(=O)CCC(=O)Nc1ccc(CNC23CNCCNCC(N)(CNCCNC2)CNCCNC3)cc1)C(C)C)C(N)=O [copper-64 labelled]		female SCID mice, PC-3 xenograft, pancreas	intravenous, 0.6 MBq, 24 h	36.9 ± 3.77 %ID/g
N=C(N)NCCC[C@@H]1NC(=O)[C@H](CCCCNC(=O)CCOCCOCCOCCOCCNC(=O)CC[C@H](NC(=O)CCOCCOCCOCCOCCNC(=O)CC[C@H](NC(=O)CN2CCN(CC(=O)O)CCN(CC(=O)O)CCN(CC(=O)O)CC2)C(=O)NCCOCCOCCOCCOCCC(=O)N[C@@H](CCC(=O)NCCOCCOCCOCCOCCC(=O)NCCCC[C@@H]2NC(=O)[C@@H](Cc3ccccc3)NC(=O)[C@H](CC(=O)O)NC(=O)CNC(=O)[C@H](CCCNC(=N)N)NC2=O)C(=O)NCCOCCOCCOCCOCCC(=O)NCCCC[C@@H]2NC(=O)[C@@H](Cc3ccccc3)NC(=O)[C@H](CC(=O)O)NC(=O)CNC(=O)[C@H](CCCNC(=N)N)NC2=O)C(=O)NCCOCCOCCOCCOCCC(=O)NCCCC[C@@H]2NC(=O)[C@@H](Cc3ccccc3)NC(=O)[C@H](CC(=O)O)NC(=O)CNC(=O)[C@H](CCCNC(=N)N)NC2=O)NC(=O)[C@@H](Cc2ccccc2)NC(=O)[C@H](CC(=O)O)NC(=O)CNC1=O [indium-111 labelled]		athymic nude mice, female, U-87 MG glioma xenograft, bone	intravenous, 3 µCi, 24 h	0.88 ± 0.03 %ID/g
CSCC[C@H](NC(=O)[C@H](CC(C)C)NC(=O)[C@H](Cc1c[nH]cn1)NC(=O)CNC(=O)[C@@H](NC(=O)[C@H](C)NC(=O)[C@H](Cc1c[nH]c2ccccc12)NC(=O)[C@H](CCC(N)=O)NC(=O)CCCCCNC(=O)CNC(=O)CNC(=O)CNC(=O)CSC(C)=O)C(C)C)C(N)=O [technetium-99m labelled]		nude mouse, PC-3 xenograft, bone	30 min, together with: excess unlabelled conjugate	0.78 ± 0.13 %ID/g
